Results of several laboratories.
Numbers after ± are the reported error.
Lysine--tRNA ligase, cytoplasmic: Lysine--tRNA ligase, cytoplasmic (Arabidopsis thaliana, UniProt Q9ZPI1)
Sequence of UniProt Q9ZPI1 (whole entry, looked up): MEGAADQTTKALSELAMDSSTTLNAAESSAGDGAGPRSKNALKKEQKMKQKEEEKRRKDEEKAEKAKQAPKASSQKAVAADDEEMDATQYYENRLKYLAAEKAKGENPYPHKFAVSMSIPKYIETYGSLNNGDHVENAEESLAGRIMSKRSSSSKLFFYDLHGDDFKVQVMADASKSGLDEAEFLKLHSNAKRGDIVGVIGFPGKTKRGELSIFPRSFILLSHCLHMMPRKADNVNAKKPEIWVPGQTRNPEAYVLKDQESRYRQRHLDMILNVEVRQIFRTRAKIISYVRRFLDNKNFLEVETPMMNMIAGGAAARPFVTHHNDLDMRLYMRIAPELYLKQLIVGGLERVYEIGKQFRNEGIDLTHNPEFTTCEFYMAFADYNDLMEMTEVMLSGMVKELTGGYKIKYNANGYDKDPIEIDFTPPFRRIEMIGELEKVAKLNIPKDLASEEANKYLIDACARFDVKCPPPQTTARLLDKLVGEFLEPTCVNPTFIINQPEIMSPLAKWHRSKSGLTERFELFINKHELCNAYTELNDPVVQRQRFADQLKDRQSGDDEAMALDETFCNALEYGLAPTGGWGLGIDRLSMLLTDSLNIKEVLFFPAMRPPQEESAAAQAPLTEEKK
CSNK1E: Casein kinase I isoform epsilon (CSNK1E, Homo sapiens, UniProt P49674)
Sequence of UniProt P49674 (whole entry, looked up): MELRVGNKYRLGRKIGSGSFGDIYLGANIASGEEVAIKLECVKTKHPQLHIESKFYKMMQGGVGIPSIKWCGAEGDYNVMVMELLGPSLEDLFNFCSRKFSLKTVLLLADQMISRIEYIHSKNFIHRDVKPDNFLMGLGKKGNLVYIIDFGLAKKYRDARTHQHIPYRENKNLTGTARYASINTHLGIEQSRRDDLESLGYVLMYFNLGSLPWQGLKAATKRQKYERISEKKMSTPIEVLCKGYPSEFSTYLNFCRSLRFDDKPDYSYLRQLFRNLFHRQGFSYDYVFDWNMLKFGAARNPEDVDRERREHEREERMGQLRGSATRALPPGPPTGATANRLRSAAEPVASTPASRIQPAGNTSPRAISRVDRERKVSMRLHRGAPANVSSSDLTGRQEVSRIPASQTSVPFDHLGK
NTRK2: BDNF/NT-3 growth factors receptor (NTRK2, Homo sapiens, UniProt Q16620)
Sequence of UniProt Q16620 (whole entry, looked up): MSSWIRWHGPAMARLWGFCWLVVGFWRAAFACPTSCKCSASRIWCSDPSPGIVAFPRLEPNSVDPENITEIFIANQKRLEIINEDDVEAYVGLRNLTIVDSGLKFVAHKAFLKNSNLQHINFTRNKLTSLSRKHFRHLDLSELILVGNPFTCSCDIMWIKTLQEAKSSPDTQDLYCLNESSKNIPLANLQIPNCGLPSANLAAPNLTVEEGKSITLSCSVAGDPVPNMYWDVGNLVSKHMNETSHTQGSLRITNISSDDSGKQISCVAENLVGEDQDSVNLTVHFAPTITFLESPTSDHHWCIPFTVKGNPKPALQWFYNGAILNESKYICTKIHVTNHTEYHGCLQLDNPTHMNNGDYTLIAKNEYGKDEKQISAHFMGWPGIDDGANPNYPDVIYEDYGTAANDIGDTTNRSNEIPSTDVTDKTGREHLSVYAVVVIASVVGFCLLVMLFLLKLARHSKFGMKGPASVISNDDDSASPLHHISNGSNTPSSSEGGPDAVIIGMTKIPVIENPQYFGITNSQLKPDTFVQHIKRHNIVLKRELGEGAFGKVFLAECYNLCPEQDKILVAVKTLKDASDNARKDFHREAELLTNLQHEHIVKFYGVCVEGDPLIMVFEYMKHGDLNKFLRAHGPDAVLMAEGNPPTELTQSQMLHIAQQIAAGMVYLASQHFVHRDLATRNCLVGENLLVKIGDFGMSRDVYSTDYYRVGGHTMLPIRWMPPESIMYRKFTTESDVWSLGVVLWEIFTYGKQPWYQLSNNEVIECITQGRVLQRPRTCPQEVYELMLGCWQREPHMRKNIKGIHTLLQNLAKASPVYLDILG
DNA polymerase catalytic subunit: DNA polymerase catalytic subunit (Human cytomegalovirus, UniProt P08546)
Sequence of UniProt P08546 (whole entry, looked up): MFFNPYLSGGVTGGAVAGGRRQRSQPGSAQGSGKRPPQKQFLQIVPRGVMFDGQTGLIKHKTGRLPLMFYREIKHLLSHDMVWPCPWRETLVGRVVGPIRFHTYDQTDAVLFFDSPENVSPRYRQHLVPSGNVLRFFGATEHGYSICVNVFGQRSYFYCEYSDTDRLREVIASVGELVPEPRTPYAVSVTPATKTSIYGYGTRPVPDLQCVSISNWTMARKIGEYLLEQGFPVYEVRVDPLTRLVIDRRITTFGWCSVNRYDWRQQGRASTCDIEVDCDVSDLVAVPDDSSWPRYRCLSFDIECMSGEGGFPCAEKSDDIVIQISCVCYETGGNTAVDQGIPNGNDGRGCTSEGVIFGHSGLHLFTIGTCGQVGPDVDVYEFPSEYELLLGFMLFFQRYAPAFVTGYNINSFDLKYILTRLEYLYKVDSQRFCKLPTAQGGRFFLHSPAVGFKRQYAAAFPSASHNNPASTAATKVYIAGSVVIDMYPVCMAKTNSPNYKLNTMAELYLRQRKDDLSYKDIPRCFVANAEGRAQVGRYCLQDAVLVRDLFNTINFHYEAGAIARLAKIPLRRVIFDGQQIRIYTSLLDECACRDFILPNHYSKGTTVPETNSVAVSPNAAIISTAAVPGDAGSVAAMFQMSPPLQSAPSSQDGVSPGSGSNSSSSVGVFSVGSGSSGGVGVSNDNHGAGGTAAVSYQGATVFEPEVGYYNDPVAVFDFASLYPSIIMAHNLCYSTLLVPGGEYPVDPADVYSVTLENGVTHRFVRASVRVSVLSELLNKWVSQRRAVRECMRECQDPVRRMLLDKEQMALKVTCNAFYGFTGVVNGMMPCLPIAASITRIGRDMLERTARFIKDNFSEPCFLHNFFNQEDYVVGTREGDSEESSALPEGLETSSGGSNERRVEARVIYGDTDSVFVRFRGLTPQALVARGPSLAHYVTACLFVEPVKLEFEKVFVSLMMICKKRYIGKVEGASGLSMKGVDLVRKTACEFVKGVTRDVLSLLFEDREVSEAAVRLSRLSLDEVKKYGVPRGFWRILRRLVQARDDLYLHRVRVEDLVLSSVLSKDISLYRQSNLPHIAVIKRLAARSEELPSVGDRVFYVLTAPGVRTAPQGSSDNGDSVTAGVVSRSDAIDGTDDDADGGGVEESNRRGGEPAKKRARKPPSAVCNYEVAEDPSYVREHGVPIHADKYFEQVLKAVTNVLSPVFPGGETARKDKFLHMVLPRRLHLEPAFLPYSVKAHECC
FAAH: Fatty-acid amide hydrolase 1 (FAAH, Homo sapiens, UniProt O00519)
SIRT5: NAD-dependent protein deacylase sirtuin-5, mitochondrial (SIRT5, Homo sapiens, UniProt Q9NXA8)
Sequence of UniProt Q9NXA8 (whole entry, looked up): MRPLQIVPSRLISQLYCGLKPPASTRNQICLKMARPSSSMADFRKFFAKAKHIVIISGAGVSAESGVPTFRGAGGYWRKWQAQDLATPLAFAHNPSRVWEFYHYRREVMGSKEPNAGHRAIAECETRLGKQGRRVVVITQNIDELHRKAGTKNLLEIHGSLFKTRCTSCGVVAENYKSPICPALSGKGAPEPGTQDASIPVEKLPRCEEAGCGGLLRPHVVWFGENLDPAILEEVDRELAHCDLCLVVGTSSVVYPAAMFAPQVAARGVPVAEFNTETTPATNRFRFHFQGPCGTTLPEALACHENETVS
CDK6 with cyclin D1: Cyclin-dependent kinase 6, with cyclin D1 (CDK6, Homo sapiens, UniProt Q00534)
Sequence of UniProt Q00534 (whole entry, looked up): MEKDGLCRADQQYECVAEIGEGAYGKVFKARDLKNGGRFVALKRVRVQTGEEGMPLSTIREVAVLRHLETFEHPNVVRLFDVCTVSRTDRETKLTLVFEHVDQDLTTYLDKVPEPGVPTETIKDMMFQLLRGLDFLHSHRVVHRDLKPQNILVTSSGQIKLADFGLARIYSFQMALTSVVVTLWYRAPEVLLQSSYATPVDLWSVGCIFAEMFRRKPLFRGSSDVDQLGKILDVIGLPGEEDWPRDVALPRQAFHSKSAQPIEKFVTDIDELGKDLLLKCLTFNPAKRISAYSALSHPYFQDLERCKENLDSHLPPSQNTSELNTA
MCL1: Induced myeloid leukemia cell differentiation protein Mcl-1 (MCL1, Homo sapiens, UniProt Q07820)
DRD2: D(2) dopamine receptor (DRD2, Homo sapiens, UniProt P14416)
Sequence of UniProt P14416 (whole entry, looked up): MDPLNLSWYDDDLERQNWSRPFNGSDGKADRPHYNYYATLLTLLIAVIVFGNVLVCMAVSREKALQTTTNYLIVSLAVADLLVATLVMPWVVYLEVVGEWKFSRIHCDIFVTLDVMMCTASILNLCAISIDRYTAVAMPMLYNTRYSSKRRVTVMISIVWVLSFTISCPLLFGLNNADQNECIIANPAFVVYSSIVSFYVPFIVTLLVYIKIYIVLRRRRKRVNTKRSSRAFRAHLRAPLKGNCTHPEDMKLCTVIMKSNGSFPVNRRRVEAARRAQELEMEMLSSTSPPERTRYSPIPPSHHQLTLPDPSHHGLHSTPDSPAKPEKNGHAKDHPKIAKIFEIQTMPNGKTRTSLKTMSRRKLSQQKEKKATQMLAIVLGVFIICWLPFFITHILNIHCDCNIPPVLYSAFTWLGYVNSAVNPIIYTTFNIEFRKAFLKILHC
PTGS2: Prostaglandin G/H synthase 2 (PTGS2, Homo sapiens, UniProt P35354)
Sequence of UniProt P35354 (whole entry, looked up): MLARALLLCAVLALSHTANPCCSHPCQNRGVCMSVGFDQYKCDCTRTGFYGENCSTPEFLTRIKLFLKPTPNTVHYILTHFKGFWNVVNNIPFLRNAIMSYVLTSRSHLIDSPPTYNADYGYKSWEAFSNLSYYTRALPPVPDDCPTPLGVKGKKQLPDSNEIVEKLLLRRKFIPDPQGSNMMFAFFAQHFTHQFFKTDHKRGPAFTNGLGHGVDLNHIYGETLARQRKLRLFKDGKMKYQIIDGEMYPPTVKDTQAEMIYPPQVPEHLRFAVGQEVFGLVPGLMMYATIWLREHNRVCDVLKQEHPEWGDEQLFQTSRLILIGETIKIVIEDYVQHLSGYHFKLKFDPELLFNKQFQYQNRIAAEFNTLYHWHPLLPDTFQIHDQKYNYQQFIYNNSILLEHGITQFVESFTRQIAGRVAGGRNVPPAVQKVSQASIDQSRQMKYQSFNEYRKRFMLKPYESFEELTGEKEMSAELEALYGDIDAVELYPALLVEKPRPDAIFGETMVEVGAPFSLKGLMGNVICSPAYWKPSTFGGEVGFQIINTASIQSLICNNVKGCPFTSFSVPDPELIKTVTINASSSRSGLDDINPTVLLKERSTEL
TAF1L BD2: Transcription initiation factor TFIID subunit 1-like, BD2 (TAF1L, Homo sapiens, UniProt Q8IZX4)
Grin1: Glutamate receptor ionotropic, NMDA 1 (Grin1, Rattus norvegicus, UniProt P35439)
KRAS with SOS1: GTPase KRas, with SOS1 (KRAS, Homo sapiens, UniProt P01116)
KRAS C118S/G12V with SOS1: GTPase KRas, with SOS1 (KRAS, Homo sapiens, UniProt P01116, C118S/G12V)
60 kDa heat shock protein, mitochondrial with HSP10: 60 kDa heat shock protein, mitochondrial, with HSP10 (Homo sapiens, UniProt P10809)

For `Nc1nsc(C(=O)NCc2c(F)cccc2Cl)c1Cl`, the IC50 was greater than 100 µM (Lysine--tRNA ligase, cytoplasmic; enzyme activity, inhibitor).
With `Fc1ccc(-c2nc(-c3c(F)cccc3F)[nH]c2-c2ccncc2)cc1` the IC50 was 0.0064 ± 0.0004 µM (CSNK1E; inhibitor).
With `Cc1cc(Nc2ccc(C(F)(F)F)cc2)n2ccnc2n1` the IC50 was greater than 100 µM (DHODH (Homo sapiens, UniProt Q02127); enzyme activity, inhibitor).
The IC50 of `O=C(C1=C(O)C(=O)N(c2ccc(Br)cc2F)C1c1cccc(Br)c1)C1CC1` (stereo not shown) is reported as 6.73 µM (CCR1 (Homo sapiens, UniProt P32246); inverse agonist; U2OS expressing CCR1; no CCL3).
`COc1cc(N2CCC(N3CCN(C)CC3)CC2)ccc1Nc1ncc(Cl)c(Nc2ccccc2P(C)(C)=O)n1` gave an IC50 of 3.15 µM (NTRK2; cell-based).
With `CN1CCN(c2cnc3c(cc(C(=O)NCc4ccc(Cl)cc4)c(=O)n3CC(=O)N3CC(C)(F)C3)n2)C1=O` the IC50 was 0.32 µM (DNA polymerase catalytic subunit; enzyme activity; retest).
`O=C(Nc1cccnn1)N1CCC(=Cc2cccc(Oc3ccc(C(F)(F)F)cn3)c2)CC1` has an IC50 of 0.0043 µM (FAAH; enzyme activity, inhibitor; COS cells expressing human FAAH; 1 h).
The IC50 of `C[C@@H]1CN(C(=O)c2ccc(NC(=O)c3cc(O[C@H](C)c4c(Cl)ccc(F)c4Cl)c(N)nn3)cc2)C[C@H](C)N1` is reported as 0.015 µM (NTRK2; enzyme activity, inhibitor; added: 1 mM ATP).
For `O=C(Nc1ccc(-c2cccc3ncccc23)cc1)C1CCN(S(=O)(=O)c2ccccc2Cl)CC1`, the IC50 was 0.0214 µM (FAAH; inhibitor; 60 min preincubation).
`O=C(NC1CCC1)[C@H](Cc1c[nH]c2ccccc12)NC(=O)[C@H](CCCCNC(=S)NCCn1nn[nH]c1=O)NS(=O)(=O)c1cccc(F)c1` has an IC50 of 1.5 ± 0.1 µM (SIRT5; enzyme activity, inhibitor).
The IC50 of `CC[C@@H]1[C@H](F)C(=O)N[C@@H]1COc1nccc2cc(C(N)=O)c(OC)cc12` is reported as greater than 5 µM (PRKD2 (Homo sapiens, UniProt Q9BZL6); ATP probe binding, KiNativ profiling, refers to: PKD2 Lys1 probe site; THP-1 cell lysate).
For `CN(C)C(=O)c1cc2cnc(Nc3cc(C(F)(F)F)c(-c4ccc5c(=O)cc(N6CCOCC6)oc5c4)cn3)nc2n1C1CCCC1`, the IC50 was greater than 10 µM (CDK6 with cyclin D1; inhibitor, HotSpot radiometric kinase; added: 10 µM ATP, cyclin D1).
The IC50 of `CCc1c(-c2cccc(Cl)c2C)c2c(N[C@H](Cc3ccccc3)C(=O)O)ncnc2n1CC(F)(F)F` (single isomer, unassigned) is reported as 8.5 µM (MCL1).
`Cc1[nH]c(C)c(S(=O)(=O)N2CCC(F)(F)C2)c1S(=O)(=O)N1CCC(F)(F)C1` has an IC50 of greater than 100 µM (DRD2).
`O=c1nc(N2CCN(CC3CCCCC3)CC2)sc2c([N+](=O)[O-])cc(C(F)(F)F)cc12` gave an IC50 of greater than 10 µM (CYP2C19 (Homo sapiens, UniProt P33261); 60 (unit not given), pH 7.4).
`Cn1cnc(Cn2ccc3ccc(CNCc4[nH]c5ccccc5c4[C@H]4NC(=O)c5ccc(O)cc54)cc32)c1` has an IC50 of 18.7 ± 8 µM (GTPase KRas, GppNHp; with RAF1 RBD (KRAS, Homo sapiens, UniProt P01116, G12V); HTRF).
With `COc1cc2c(c(OC)c1OC)-c1c(cc3c(c1OC)OCO3)[C@H](OC(=O)c1ccccc1)[C@@](C)(O)[C@@H](C)C2` the IC50 was 0.01 ± 0.004 µM (Cytochrome P450 3A5 (CYP3A5, Homo sapiens, UniProt P20815); testosterone 6β-hydroxylation, inhibitor, recombinant enzyme; 15 min, pH 7.4, added: testosterone 50 µM).
With `O=c1cc(-c2ccc(O)c(O)c2)oc2cc(O)c([C@@H]3O[C@H](CO)[C@@H](O)[C@H](O)[C@H]3O)c(O)c12` the IC50 was 41 µM (PTGS2).
With `Cc1nc2ccccc2c(=O)n1NC(=O)CSc1nc2ccccc2c(=O)n1-c1ccccc1` the IC50 was 12.8 ± 1.41 µM (XDH (Bos taurus, UniProt P80457); enzyme activity, inhibitor).
`Cc1cc2c(cc1N1C(=O)c3cccc4cc(N)cc(c34)C1=O)n(C)c(=O)n2C` has an IC50 of 0.167 µM (TAF1L BD2; HTRF; GST-tagged protein).
For `CN1CCN(c2cc(=O)c3ccc(Nc4ncc5cc(C(=O)N(C)C)n(C6CCCC6)c5n4)cc3o2)CC1`, the IC50 was 0.0255 µM (CDK6 with cyclin D1; inhibitor, HotSpot radiometric kinase; added: 10 µM ATP, cyclin D1).
For `CN1CCN(c2cc3c(cc2N2C(=O)c4cccc5cccc(c45)C2=O)n(C)c(=O)n3C)CC1`, the IC50 was 4.18 µM (TAF1L BD2; HTRF; GST-tagged protein).
`O=C(NC1CCC1)[C@H](Cc1c[nH]c2ccccc12)NC(=O)[C@H](CCCCNC(=S)NCc1n[nH]c(=S)o1)NS(=O)(=O)c1cccc(F)c1` gave an IC50 of 10.8 ± 0.4 µM (SIRT5; enzyme activity, inhibitor).
The IC50 of `CC(C)C[C@H](NC(=O)[C@H](Cc1cccc2ccccc12)NC(=O)OCc1ccccc1)C(=O)N[C@H](CS)C[C@@H]1CCNC1=O` is reported as greater than 10 µM (Genome polyprotein, protease domain (Lordsdale virus, UniProt P54634); protease activity, inhibitor, FRET; 37 °C).
`Cc1ccc2[nH]nc(-c3nnc(Nc4ccc(Cl)c(Br)c4)s3)c2c1` has an IC50 of 10.2 ± 1.5 µM (α-glucosidase; enzyme activity, inhibitor; pH 6.8, added: p-nitrophenyl-α-D-glucopyranoside).
For `O=C(O)/C(=C/c1c(C(=O)O)[nH]c2cc(Cl)cc(Cl)c12)c1ccccc1`, the IC50 was 0.012 µM (Grin1; binding, radioligand binding; rat).
`Cc1[nH]c(C)c(S(=O)(=O)Nc2ccc(C(F)(F)F)c(Cl)c2)c1S(=O)(=O)Nc1ccc(C(F)(F)F)c(Cl)c1` gave an IC50 of greater than 100 µM (DRD2).
`COCCN1CCN(c2nccc(-c3noc([C@@]4(C)CCCc5sc(N)c(C#N)c54)n3)n2)[C@@H](C)C1` gave an IC50 of 0.328 µM (KRAS with SOS1; KRAS wild type-SOS1 interaction, inhibitor, AlphaScreen; geometric mean).
The IC50 of `COc1ccc(-c2cc(OCC(=O)N(C)Cc3cccnc3C)nc(-n3nc(C)cc3C)n2)cc1` is reported as roughly 0.1 µM (LNPEP (Homo sapiens, UniProt Q9UIQ6); inhibitor, HPLC; first phase of biphasic curve; partial inhibition).
`Fc1ccc(-c2nc(-c3ccc4ccccc4c3Br)[nH]c2-c2ccncc2)cc1` gave an IC50 of 0.0495 ± 0.0021 µM (CSNK1E; inhibitor).
The IC50 of `Cc1[nH]c(C)c(S(=O)(=O)Nc2ccc(C(F)(F)F)c3ncccc23)c1C(=O)N1CCC(F)(F)C1` is reported as greater than 100 µM (DRD2).
For `CCN1CC/C(=C\c2cc(C(C)(C)C)c(O)c(C(C)(C)C)c2)S1(=O)=O`, the IC50 was 0.011 µM (PTGS2; inhibitor).
`C[C@H]1CNCCCN1c1nccc(-c2noc([C@@]3(C)CCCc4sc(N)c(C#N)c43)n2)n1` has an IC50 of 0.009 µM (KRAS C118S/G12V with SOS1; KRAS G12V-SOS1 interaction, inhibitor, AlphaScreen; geometric mean).
`CCCCN(CCCC)C(=O)c1c(C)[nH]c(C)c1S(=O)(=O)Nc1ccc(C(F)(F)F)c(Cl)c1` has an IC50 of greater than 100 µM (DRD2).
For `CN1CCN(c2ccc(Nc3ncc4cc(C#N)c(=O)n(C5CCCC5)c4n3)cc2)CC1`, the IC50 was 0.126 µM (FGFR3 (Homo sapiens, UniProt P22607)).
`Cc1[nH]c(C)c(S(=O)(=O)Nc2cc(Cl)ccc2C(F)(F)F)c1C(=O)N1CCC(F)(F)C1` has an IC50 of greater than 100 µM (DRD2).
For `C=CCn1c(Br)c(-c2cccc(Cl)c2C)c2c(N[C@H](Cc3ccccc3)C(=O)O)ncnc21` (single isomer, unassigned), the IC50 was 2.5 µM (MCL1).
For `Cc1[nH]cc(C(=O)N(C)C)c1S(=O)(=O)Nc1ccc(C(F)(F)F)c(Cl)c1`, the IC50 was greater than 100 µM (DRD2).
The IC50 of `CCCCCCCCCCOC(C)=O` is reported as 6.74 µM (uncharacterized protein (Spodoptera exigua, UniProt F1CEY0); binding, fluorescence competitive binding; added: 1-NPN 2.0 µM).
`Cc1[nH]c(C)c(S(=O)(=O)Nc2ccc(Cl)c(Cl)c2Cl)c1C(=O)N1CCC(F)(F)C1` has an IC50 of greater than 100 µM (DRD2).
The IC50 of `O=C(O)/C(=C/c1c(C(=O)O)[nH]c2cc(Cl)cc(Cl)c12)c1ccccc1` is reported as 0.00934 µM (Grin1; binding, radioligand binding).
With `CC1=NOC(CNC(=O)c2cnc3c(c(C)nn3C)c2Cl)C1` (stereo not shown) the IC50 was greater than 100 µM (60 kDa heat shock protein, mitochondrial with HSP10; HSP60/10-mediated MDH refolding; 30 min, preincubation before ATP, added: denatured malate dehydrogenase).
With `C[C@H]1CNCCN1c1cccc(-c2noc([C@@]3(C)CCCc4sc(N)c(C#N)c43)n2)n1` the IC50 was 0.053 µM (KRAS with SOS1; KRAS wild type-SOS1 interaction, inhibitor, AlphaScreen; geometric mean).
The IC50 of `Nc1nsc(C(=O)NCC2CCCCC2)c1C#Cc1ccccc1` is reported as 6.31 µM (Lysine--tRNA ligase, cytoplasmic; enzyme activity, inhibitor).
With `Cc1cc2c(cc1N1C(=O)c3cccc4c(Cl)ccc(c34)C1=O)n(C)c(=O)n2C` the IC50 was 0.0209 µM (TAF1L BD2; HTRF; GST-tagged protein).
The IC50 of `Cc1cnc(-c2ccc(-c3ccc(NC(=O)Nc4c(F)cc(F)cc4F)cc3F)c3c2C(=O)NC3)[nH]1` is reported as 0.0027 µM (NTRK3 (Homo sapiens, UniProt Q16288); enzyme activity, inhibitor, mobility shift; added: ATP 1 mM).
`CCCOc1cc2c(cc1C(=C1CC1)c1ccc(C(=O)O)cc1)C(C)(C)CCC2(C)C` has an IC50 of 0.046 µM (RXRA (Homo sapiens, UniProt P19793); binding; added: [3H]9-cis-retinoic acid).
`COc1cc(N2CCC(N3CCN(C)CC3)CC2)ccc1Nc1ncc(Cl)c(Nc2ccccc2P(C)(C)=O)n1` gave an IC50 of 6.49 µM (SLC22A1 (Homo sapiens, UniProt O15245); transport, inhibitor; HEK cells transfected with SLC22A1; added: MPP+ substrate).
For `C[C@H]1CN(C)CCN1c1nccc(-c2cc([C@@]3(C)CCCc4sc(N)c(C#N)c43)on2)n1`, the IC50 was 0.042 µM (KRAS C118S/G12V with SOS1; KRAS G12V-SOS1 binding, inhibitor, AlphaScreen).
With `Cc1nn(C)c2ncc(C(=O)NCC3CC(Br)=NO3)c(Cl)c12` (stereo not shown) the IC50 was greater than 250 µM (60 kDa heat shock protein, mitochondrial with HSP10; ATPase activity; 30 min, added: HSP10).
`CC1(F)CN(C(=O)Cn2c(=O)c(C(=O)NCc3ccc(Cl)cc3)cc3nc(N4CCN(CC(=O)O)C4=O)cnc32)C1` has an IC50 of 0.58 µM (DNA polymerase catalytic subunit; enzyme activity; retest).
`Cc1[nH]c(C)c(S(=O)(=O)Nc2ccc([N+](=O)[O-])c(Cl)c2)c1C(=O)N1CCC(F)(F)C1` gave an IC50 of greater than 100 µM (DRD2).
The IC50 of `CN(C)C(=O)c1cc2cnc(Nc3cncc(-c4cccc5c(=O)cc(N6CCOCC6)oc45)c3)nc2n1C1CCCC1` is reported as 0.039 µM (CDK6 with cyclin D1; inhibitor, HotSpot radiometric kinase; added: 10 µM ATP, cyclin D1).
`O=[N+]([O-])c1ccccc1-c1nc(-c2ccc(F)cc2)c(-c2ccncc2)[nH]1` has an IC50 of 0.0334 ± 0.0069 µM (CSNK1E; inhibitor).
The IC50 of `C[C@H](NC(=O)c1snc(N)c1Cl)C1CCCCC1` is reported as 3.98 µM (Lysine--tRNA ligase, cytoplasmic; enzyme activity, inhibitor).
